Published values pooled from the literature.
A part holds a random share of what one study measured.
UniProt O94768, sequence (whole entry, looked up): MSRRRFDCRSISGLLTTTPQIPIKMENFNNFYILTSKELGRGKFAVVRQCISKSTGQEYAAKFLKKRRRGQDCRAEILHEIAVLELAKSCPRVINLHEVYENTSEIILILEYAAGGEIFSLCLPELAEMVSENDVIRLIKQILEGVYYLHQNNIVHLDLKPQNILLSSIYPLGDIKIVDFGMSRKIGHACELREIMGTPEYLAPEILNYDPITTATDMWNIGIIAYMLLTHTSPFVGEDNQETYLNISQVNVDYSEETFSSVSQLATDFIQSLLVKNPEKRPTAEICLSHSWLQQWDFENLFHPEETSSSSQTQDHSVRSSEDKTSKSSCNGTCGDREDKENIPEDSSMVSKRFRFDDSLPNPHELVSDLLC
UniProt P10721, sequence (whole entry, looked up): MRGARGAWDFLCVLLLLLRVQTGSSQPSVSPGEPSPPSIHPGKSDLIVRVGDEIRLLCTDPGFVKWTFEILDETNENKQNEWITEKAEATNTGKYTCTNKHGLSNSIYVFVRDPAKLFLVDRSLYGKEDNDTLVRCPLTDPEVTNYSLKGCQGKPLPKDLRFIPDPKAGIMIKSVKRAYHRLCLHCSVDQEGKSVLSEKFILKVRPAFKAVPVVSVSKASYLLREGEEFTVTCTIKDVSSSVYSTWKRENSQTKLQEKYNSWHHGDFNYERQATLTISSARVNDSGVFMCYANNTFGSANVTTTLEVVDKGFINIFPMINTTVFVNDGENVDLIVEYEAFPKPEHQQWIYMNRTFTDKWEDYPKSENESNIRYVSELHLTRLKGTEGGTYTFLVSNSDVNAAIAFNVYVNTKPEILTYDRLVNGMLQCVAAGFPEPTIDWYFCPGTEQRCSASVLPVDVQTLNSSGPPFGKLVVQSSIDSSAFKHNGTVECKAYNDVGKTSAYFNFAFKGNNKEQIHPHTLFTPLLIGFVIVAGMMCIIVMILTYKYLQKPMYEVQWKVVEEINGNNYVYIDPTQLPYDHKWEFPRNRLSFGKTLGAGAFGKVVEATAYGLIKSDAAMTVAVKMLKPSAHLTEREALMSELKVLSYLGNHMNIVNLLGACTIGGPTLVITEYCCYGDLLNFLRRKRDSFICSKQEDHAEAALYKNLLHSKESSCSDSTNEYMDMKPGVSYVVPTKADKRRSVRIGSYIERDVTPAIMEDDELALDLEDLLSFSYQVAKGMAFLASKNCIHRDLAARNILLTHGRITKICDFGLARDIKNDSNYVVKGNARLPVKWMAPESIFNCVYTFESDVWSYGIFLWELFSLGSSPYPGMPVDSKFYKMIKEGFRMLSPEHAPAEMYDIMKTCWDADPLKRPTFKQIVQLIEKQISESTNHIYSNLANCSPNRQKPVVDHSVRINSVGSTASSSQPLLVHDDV
UniProt P51957, sequence (whole entry, looked up): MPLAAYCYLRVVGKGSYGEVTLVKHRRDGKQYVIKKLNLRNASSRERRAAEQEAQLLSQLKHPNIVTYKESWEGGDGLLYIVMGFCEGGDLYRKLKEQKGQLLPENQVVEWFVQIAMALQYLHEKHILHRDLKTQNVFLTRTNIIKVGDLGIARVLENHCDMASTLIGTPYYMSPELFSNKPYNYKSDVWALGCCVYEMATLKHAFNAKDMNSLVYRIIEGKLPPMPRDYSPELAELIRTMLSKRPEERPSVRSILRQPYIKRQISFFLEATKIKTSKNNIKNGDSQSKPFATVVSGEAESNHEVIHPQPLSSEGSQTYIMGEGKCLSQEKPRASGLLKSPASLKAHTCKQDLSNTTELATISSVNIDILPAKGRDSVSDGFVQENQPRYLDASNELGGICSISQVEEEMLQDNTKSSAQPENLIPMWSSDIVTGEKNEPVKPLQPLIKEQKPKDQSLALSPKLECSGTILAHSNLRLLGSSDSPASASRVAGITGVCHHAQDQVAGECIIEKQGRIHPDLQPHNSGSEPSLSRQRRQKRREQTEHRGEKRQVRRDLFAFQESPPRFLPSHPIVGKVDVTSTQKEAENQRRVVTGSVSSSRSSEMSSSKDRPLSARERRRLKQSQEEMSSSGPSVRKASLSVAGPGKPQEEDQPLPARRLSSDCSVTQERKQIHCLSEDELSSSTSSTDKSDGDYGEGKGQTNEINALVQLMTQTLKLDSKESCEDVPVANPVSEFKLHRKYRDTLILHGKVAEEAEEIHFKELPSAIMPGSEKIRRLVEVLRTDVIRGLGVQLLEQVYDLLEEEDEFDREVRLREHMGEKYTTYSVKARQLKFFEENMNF
UniProt Q14680, sequence (whole entry, looked up): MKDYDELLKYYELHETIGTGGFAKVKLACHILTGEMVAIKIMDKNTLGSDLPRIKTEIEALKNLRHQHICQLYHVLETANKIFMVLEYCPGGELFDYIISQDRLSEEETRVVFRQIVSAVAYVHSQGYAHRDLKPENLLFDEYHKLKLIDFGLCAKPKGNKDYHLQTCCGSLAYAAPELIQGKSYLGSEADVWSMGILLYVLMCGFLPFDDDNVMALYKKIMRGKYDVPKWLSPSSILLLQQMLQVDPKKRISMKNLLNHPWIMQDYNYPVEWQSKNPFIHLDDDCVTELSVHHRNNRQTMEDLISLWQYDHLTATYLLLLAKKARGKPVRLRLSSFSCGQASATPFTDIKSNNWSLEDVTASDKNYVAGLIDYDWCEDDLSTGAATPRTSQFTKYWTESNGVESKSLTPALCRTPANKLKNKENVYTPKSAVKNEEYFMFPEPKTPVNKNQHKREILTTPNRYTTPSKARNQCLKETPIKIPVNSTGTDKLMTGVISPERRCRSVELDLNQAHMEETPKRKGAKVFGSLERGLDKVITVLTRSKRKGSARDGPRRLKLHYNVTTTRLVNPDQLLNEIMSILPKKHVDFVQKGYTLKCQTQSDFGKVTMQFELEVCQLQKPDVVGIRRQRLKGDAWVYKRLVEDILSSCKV
UniProt Q8WXR4, sequence (whole entry, looked up): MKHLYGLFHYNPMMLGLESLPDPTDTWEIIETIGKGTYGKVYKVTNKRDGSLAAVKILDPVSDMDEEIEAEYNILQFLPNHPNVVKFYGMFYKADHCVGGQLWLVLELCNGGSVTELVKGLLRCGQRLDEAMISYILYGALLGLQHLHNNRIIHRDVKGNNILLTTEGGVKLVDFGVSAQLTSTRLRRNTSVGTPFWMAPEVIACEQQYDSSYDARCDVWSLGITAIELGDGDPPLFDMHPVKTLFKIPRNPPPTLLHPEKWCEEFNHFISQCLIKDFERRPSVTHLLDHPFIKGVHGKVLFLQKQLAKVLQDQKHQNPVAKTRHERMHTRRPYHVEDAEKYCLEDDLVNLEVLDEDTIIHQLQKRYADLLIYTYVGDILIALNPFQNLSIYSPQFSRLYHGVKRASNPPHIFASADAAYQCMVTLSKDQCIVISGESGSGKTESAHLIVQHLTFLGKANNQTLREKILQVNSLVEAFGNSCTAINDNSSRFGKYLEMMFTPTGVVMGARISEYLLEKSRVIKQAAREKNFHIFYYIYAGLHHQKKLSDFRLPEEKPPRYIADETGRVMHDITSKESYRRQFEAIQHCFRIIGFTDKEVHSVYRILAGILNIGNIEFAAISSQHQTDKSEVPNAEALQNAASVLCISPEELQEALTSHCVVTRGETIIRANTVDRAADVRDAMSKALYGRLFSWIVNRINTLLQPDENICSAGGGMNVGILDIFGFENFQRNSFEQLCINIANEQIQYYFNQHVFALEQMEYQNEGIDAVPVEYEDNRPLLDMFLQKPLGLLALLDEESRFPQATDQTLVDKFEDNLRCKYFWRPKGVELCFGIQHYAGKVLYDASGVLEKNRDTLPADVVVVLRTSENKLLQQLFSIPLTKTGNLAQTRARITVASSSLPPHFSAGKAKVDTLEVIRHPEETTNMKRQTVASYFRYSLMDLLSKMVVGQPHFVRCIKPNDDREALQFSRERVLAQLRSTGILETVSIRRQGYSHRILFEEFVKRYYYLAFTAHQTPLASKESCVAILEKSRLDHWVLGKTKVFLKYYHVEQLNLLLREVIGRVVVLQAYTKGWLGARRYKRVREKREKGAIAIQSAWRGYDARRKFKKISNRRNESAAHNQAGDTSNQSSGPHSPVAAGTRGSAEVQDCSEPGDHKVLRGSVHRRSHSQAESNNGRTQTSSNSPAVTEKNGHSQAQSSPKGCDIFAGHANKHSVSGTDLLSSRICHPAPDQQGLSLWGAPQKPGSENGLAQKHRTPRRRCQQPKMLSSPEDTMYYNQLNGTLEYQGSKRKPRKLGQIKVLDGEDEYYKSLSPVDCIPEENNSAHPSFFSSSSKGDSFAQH
UniProt P49137, sequence (whole entry, looked up): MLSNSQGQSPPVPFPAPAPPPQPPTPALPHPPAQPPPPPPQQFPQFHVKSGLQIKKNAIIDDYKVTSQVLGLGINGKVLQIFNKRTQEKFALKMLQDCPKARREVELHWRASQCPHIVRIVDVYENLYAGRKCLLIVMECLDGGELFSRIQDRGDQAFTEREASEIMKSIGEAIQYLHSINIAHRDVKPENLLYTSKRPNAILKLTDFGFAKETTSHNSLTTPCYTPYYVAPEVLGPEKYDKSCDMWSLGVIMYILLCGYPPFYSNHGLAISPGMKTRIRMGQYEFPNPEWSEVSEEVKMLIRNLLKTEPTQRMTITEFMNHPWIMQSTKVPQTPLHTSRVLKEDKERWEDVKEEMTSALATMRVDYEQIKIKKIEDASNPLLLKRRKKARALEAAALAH

Study 1 — organism: Sarcocystis neurona; read-out: parasite growth; concentration: 10 µM; time: 96 h; notes: second screen; relative to: untreated; endpoint: log2 fold change
CC(=O)CC(c1ccccc1)c1c(O)c2ccccc2oc1=O (stereo not shown): 0.3
CCN(CC)CC1CCCCN1CC(=O)N1c2ccccc2C(=O)Nc2cccnc21 (stereo not shown): 0.28
C[C@](N)(Cc1ccc(O)c(O)c1)C(=O)O: 0.22

Study 2 — method: competition with immobilised ligand; endpoint: remaining binding
Compound: Nc1c(C(=O)NCc2ccc(C(=O)NCCCC3CCCCC3)cc2)cnn1-c1ccccc1
Tyrosine-protein kinase ABL1, non-phosphorylated (ABL1, Homo sapiens, UniProt P00519, F317L); cell-free assay; 0.1 µM: 100%
NEK4 (Homo sapiens, UniProt P51957); cell-free assay; 0.1 µM: 100%
FLT3 (Homo sapiens, UniProt P36888, D835V); cell-free assay; 0.1 µM: 100%
KIT (Homo sapiens, UniProt P10721); binding; 1 µM: 45%
Myosin-IIIb (MYO3B, Homo sapiens, UniProt Q8WXR4); cell-free assay; 0.1 µM: 100%
STK17B (Homo sapiens, UniProt O94768); cell-free assay; 0.1 µM: 94%
MELK (Homo sapiens, UniProt Q14680); cell-free assay; 0.1 µM: 92%
MAPKAPK2 (Homo sapiens, UniProt P49137); cell-free assay; 0.1 µM: 100%

Study 3 — species: human; medium: microsomes or S9; concentration: 2 µM; time: 0.5 h; endpoint: remaining compound
CNc1nc(Nc2ccccc2C)c(C#N)c2c1COC(C)(C)C2: 7.81%
O=C1Cc2cc(S(=O)(=O)N3CCN(C(c4ccccc4)c4ccccc4)CC3)cc3c2N1CCC3: > 100%
CCOC(=O)C1CCN(c2nc(-c3ccc(S(C)(=O)=O)cc3)ncc2OC)CC1: 1.6%
O=C(O)/C=C/c1ccc2c(c1)N(Cc1ccccc1)C(=O)CO2: 74.3%
O=c1[nH]c2c(c(=O)n1-c1cccc(F)c1)[S+]([O-])CC2 (stereo not shown): 92.2%

Study 4 — read-out: enzyme activity; action: inhibitor; concentration: 0.5 µM; relative to: control; endpoint: remaining activity
Target: Serine/threonine-protein kinase 25 (STK25, Homo sapiens, UniProt O00506)
UniProt O00506, sequence (whole entry, looked up): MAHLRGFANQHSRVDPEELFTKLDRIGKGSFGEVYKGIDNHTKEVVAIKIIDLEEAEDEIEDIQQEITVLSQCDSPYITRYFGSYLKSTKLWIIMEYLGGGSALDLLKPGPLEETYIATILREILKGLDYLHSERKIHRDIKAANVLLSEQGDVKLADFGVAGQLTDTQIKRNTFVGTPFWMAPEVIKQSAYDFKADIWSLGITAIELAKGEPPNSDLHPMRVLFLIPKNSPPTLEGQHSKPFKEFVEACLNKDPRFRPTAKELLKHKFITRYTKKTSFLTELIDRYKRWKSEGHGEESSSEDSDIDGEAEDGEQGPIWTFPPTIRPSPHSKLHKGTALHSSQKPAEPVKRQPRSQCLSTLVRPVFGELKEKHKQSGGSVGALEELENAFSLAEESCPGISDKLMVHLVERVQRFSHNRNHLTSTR
NCCNc1ncc(C(N)=O)c(Nc2cccc(C(F)(F)F)c2)n1: 97.7%
N#CC(C#N)=C(N)/C(C#N)=C/c1ccc(O)cc1: 90.4%
Nc1ncnc2n[nH]c(Nc3ccc(F)cc3)c12: 112%
CCOC(=O)c1c(C)[nH]c(/C=C2\C(=O)Nc3ccccc32)c1C: 98.5%
Oc1ccc(-c2nc(-c3ccncc3)c(-c3ccc(F)cc3)[nH]2)cc1: 115%
COc1cc2nccc(Oc3ccc(NC(=S)NC(=O)c4ccccc4C)cc3)c2cc1OC: 103%
CO[C@H]1C[C@@H]2CC[C@@H](C)[C@@](O)(O2)C(=O)C(=O)N2CCCC[C@H]2C(=O)O[C@H]([C@H](C)C[C@@H]2CC[C@@H](O)[C@H](OC)C2)CC(=O)[C@H](C)/C=C(\C)[C@@H](O)[C@@H](OC)C(=O)[C@H](C)C[C@H](C)/C=C/C=C/C=C/1C: 129%
COc1ccc(OC)c2c(=S)c3ccccc3[nH]c12: 96.2%
Cn1c2ccccc2c2c3c(c4c5ccccc5n(CCC#N)c4c21)CNC3=O: 83.9%
Nc1ccc2ncnc(NCCc3ccc(Oc4ccccc4)cc3)c2c1: 116%
Cn1sc(=O)n(Cc2ccccc2)c1=O: 96.2%
COc1ccc(CNC(=O)Nc2ncc([N+](=O)[O-])s2)cc1: 98.6%
O=C(O)c1ccc2c3c1cccc3c(=O)n1c3ccccc3nc21: 104%
Cc1ccc(NC(=O)c2ccc(CN3CCN(C)CC3)cc2)cc1Nc1nc(-c2cccnc2)cs1: 95.5%

Other studies, line by line
CCC(CC)[C@H](NC(C)=O)[C@@H]1[C@H](O)[C@@H](C(=O)O)C[C@H]1NC(=N)N  viability (A-375; 100 µM, 60 h): 104%
